# Experimental data of several laboratories.
# Each line is one published result; not all experiments were run side by side. “And” joins repeats or separate records; there may be more than shown. ± gives the spread as reported.
# OPRD1: Delta-type opioid receptor (OPRD1, Homo sapiens, UniProt P41143)
# Sequence of UniProt P41143 (whole entry, looked up): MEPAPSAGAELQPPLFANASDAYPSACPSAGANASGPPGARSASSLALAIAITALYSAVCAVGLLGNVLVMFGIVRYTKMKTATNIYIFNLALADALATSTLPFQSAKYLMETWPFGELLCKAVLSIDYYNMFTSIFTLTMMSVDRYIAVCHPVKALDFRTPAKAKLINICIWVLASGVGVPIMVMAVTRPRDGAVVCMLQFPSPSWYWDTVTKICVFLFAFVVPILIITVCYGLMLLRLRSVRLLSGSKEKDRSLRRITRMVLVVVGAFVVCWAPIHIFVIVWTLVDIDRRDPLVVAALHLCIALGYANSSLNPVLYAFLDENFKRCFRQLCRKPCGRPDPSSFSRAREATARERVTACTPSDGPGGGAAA
# GABA-A receptor; alpha-1/beta-3/gamma-2: GABA-A receptor; alpha-1/beta-3/gamma-2 (Homo sapiens, UniProt P14867+P18507+P28472)
# Sequence of UniProt P18507 (whole entry, looked up): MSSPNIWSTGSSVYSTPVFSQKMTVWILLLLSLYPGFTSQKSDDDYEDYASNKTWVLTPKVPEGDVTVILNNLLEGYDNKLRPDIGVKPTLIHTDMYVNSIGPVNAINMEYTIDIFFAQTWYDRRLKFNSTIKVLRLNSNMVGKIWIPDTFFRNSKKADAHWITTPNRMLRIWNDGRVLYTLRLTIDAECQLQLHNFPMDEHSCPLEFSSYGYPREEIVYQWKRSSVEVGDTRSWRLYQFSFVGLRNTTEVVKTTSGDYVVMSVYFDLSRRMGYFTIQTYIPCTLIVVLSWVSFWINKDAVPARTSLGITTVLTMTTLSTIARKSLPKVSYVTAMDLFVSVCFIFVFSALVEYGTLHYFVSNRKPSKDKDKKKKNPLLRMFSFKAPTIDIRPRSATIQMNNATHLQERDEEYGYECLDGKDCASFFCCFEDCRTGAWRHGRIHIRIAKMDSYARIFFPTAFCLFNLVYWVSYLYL
# Sequence of UniProt P14867 (whole entry, looked up): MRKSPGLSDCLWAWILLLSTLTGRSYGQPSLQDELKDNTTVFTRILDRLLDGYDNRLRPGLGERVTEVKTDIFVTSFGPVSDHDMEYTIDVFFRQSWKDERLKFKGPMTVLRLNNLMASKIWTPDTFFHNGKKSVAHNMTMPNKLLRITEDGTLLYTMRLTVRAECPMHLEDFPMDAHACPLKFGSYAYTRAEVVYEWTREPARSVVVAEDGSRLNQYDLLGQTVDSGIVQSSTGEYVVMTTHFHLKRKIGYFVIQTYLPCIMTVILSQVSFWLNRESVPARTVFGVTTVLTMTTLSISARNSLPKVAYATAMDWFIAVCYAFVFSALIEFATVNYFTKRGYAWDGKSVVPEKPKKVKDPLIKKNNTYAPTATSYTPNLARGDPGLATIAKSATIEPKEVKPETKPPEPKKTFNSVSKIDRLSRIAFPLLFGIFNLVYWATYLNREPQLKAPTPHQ
# Sequence of UniProt P28472 (whole entry, looked up): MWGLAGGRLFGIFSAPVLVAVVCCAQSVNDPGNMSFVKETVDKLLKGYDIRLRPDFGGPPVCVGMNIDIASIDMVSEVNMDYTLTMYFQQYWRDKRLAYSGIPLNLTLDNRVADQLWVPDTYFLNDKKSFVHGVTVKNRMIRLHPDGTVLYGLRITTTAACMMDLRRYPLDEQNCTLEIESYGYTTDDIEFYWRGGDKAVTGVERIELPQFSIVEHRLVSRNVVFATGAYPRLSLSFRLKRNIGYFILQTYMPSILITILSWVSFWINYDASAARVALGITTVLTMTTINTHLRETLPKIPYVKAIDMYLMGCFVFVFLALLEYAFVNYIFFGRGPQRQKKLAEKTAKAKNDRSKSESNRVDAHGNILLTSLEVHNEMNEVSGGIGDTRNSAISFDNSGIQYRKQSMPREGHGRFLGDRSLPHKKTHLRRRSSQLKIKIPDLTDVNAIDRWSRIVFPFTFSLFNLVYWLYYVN
# Sequence of UniProt Q01959 (whole entry, unmodified, looked up): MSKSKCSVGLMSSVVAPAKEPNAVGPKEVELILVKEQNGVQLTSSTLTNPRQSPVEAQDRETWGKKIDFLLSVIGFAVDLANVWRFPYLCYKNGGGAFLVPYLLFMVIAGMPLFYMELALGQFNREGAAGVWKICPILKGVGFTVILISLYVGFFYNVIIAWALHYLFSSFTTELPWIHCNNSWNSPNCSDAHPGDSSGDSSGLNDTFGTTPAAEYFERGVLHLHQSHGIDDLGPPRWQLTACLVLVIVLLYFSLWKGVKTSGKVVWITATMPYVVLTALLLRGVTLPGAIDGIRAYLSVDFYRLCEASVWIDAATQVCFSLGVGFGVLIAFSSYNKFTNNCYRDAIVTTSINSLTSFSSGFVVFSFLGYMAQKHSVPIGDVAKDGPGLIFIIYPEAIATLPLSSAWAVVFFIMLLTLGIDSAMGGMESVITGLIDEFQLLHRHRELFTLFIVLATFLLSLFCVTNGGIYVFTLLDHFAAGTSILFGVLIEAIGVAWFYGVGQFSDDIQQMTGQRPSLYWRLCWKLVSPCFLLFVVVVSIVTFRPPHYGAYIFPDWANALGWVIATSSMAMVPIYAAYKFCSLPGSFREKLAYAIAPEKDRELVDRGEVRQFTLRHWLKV
# Sequence of UniProt Q8NET8 (whole entry, unmodified, looked up): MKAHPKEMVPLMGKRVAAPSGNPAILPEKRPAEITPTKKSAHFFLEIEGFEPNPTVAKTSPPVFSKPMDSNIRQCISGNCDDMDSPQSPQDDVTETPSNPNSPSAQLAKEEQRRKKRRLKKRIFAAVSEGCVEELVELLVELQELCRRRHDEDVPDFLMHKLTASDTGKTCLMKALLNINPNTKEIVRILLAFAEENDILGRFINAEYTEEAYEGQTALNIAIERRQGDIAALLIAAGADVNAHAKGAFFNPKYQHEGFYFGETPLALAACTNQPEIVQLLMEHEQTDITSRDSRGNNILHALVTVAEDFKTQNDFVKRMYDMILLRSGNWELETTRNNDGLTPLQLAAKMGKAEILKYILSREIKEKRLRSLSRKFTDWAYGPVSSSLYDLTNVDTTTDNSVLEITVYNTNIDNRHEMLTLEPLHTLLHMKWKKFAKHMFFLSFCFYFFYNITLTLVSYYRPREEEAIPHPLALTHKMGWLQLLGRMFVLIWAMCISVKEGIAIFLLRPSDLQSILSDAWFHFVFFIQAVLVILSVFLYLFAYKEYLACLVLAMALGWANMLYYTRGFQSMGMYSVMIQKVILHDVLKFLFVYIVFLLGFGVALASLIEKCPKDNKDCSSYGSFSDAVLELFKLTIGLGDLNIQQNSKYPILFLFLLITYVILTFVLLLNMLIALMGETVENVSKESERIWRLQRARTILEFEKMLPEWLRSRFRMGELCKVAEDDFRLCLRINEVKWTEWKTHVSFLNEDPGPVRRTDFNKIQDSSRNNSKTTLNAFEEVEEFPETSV
# Sequence of UniProt P23977 (whole entry, looked up): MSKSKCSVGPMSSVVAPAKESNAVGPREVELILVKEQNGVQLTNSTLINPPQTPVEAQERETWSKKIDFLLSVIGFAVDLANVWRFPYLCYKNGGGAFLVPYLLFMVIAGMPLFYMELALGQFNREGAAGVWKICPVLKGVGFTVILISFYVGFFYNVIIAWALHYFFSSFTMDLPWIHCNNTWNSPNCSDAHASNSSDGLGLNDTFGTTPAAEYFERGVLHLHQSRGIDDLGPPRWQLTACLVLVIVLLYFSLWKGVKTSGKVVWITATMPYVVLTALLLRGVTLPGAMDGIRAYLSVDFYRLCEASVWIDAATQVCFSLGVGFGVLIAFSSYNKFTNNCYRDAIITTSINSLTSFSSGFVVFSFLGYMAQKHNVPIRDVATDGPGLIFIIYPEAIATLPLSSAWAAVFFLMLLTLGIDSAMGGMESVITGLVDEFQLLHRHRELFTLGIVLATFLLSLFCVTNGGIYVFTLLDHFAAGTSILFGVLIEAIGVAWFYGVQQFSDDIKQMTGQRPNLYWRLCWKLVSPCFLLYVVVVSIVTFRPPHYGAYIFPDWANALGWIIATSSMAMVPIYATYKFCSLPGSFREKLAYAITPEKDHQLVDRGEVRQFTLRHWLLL
# Sequence of UniProt P28223 (whole entry, looked up): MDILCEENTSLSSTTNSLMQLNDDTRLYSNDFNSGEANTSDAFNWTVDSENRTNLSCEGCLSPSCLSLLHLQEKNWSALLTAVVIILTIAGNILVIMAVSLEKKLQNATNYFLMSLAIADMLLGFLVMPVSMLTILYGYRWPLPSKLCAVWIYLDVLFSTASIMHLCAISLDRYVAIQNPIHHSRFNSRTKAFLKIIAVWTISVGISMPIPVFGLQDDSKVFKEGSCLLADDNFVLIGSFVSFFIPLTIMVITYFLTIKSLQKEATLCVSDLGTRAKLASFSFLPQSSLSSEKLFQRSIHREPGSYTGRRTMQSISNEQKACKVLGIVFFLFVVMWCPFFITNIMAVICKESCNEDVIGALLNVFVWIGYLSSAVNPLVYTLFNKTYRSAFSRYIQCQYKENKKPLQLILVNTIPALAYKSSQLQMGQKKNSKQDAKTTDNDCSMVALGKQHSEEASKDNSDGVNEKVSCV
# Sequence of UniProt Q92993 (whole entry, looked up): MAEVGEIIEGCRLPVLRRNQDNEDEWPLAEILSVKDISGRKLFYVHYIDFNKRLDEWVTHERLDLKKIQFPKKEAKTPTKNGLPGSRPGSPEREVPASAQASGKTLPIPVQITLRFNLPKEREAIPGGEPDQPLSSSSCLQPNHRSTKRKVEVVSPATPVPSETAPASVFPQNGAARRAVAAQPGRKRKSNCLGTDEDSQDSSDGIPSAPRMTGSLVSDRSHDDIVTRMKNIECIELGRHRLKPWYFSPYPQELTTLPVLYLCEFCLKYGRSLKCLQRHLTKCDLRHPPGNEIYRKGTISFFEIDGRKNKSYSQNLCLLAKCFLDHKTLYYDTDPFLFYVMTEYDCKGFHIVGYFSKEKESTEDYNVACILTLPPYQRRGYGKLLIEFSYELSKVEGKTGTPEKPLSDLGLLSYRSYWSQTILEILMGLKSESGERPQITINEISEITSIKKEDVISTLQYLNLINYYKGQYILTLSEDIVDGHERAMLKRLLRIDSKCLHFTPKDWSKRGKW
Structure (SMILES),target,assay,system,conditions,how to read,endpoint,value
Cl.NS(=O)(=O)c1ccc(C(=O)N[C@H]2CC[C@@]3(O)[C@H]4Cc5ccc(O)c6c5[C@@]3(CCN4CC3CC3)[C@H]2O6)s1,OPRD1,radioligand binding,CHO membranes,,reference: Ki µ over Ki δ,selectivity ratio,19.6
CCOc1ccccc1C(=O)Nc1ccc(Cl)c(C(F)(F)F)c1,"KAT5 (Homo sapiens, UniProt Q92993)",SPR,,0.023 µM,higher = more binding,SPR binding response,0.126 RU
"CC(N)C(O)c1ccc(O)c(O)c1 (single isomer, unassigned; (-))","Genome polyprotein, NS3 helicase domain (Hepatitis C virus genotype 1b, UniProt Q9WMX2)","DNA binding, inhibitor",hepatitis C virus,"100 µM, together with: Cy5-dT15 DNA",,inhibition,0%
"COc1cc(CCNC(C)c2ccccc2O)c(OC)cc1C#N (single isomer, unassigned; (-))","HTR2A (Homo sapiens, UniProt P28223)",agonist,,,,Emax,93%
O=C1NC(=O)C2(CCc3ccc(Br)cc32)C(=O)N1,GABA-A receptor; alpha-1/beta-3/gamma-2,,,300 µM,,Emax,5%
CC(=O)S(=O)(=O)c1ccc(C(=O)N[C@H]2CC[C@@]3(O)[C@H]4Cc5ccc(O)c6c5[C@@]3(CCN4CC3CC3)[C@H]2O6)s1.Cl,OPRD1,radioligand binding,CHO membranes,,reference: Ki µ over Ki δ,selectivity ratio,23.7
Nc1ncnc2c1ncn2[C@@H]1O[C@H](COP(=O)(O)OP(=O)(O)OP(=O)(O)O)[C@@H](O)[C@H]1O,"MET (Homo sapiens, UniProt P08581)",substrate,,,,Km,40 µM
Brc1ccc2c(c1)C(c1ccccn1)=NCc1c(-c3cnco3)ncn1-2,"ADRA2B (Homo sapiens, UniProt P18089)",radioligand binding,rat brain homogenate,"10 µM, together with: [3H]rauwolscine",,inhibition,79.5%
CCCc1cc(O)c2c(c1)OC(C)(C)[C@@H]1CCC(C)=C[C@@H]21,"TRPV3 (Homo sapiens, UniProt Q8NET8, H426A)","calcium uptake, TRPV3 modulator, Fura-2 AM calcium imaging",,,,Hill coefficient,3.46 ± 0.44
CN[C@]1(c2ccccc2Cl)CCCCC1=O,glycine transporter,"radioligand binding, radioligand displacement",,30 µM,,inhibition,20%
COc1ccc(CCN)cc1OC,"Gag polyprotein, nucleocapsid protein p7 (gag, Human immunodeficiency virus type 1 group M subtype B, UniProt P04591)","NCp7-RNA binding, inhibitor, AlphaScreen",,"45 µM, together with: biotinylated U3 RNA",reference: DMSO control,inhibition,> 50%
CCNC(CC)C(=O)c1ccc2c(c1)OCO2 (stereo not shown),"Slc6a3 (Rattus norvegicus, UniProt P23977)","substrate release, releaser",rat brain synaptosomes,together with: [3H]MPP+ 9 nM,,EC50,inactive
CN1C(=O)NC(=O)[C@@]2(CCc3ccccc32)C1=O,GABA-A receptor; alpha-1/beta-3/gamma-2,,,300 µM,,Emax,8%
c1ccc2cc([C@]34CNC[C@H]3C4)ccc2c1,"SLC6A3 (Homo sapiens, UniProt Q01959, F326A)","inhibitor, [3H]dopamine uptake",,"1 µM, F326A mutant",reference: no inhibitor,dopamine uptake,70.1% and 63.3% and 71.2%
O=C1NC(=S)NC(=O)C12CCc1ccccc12,GABA-A receptor; alpha-1/beta-3/gamma-2,,,300 µM,,Emax,2%
Oc1ccc2c3c1O[C@H]1[C@@H](O)CC[C@@]4(O)[C@@H](C2)N(CC2CCC2)CC[C@]314,"Probable G-protein coupled receptor 25 (GPR25, Homo sapiens, UniProt O00155)","β-arrestin recruitment, TANGO luminescence, measured: GPR25",,concentration not given,reference: basal luminescence,log2 fold change,0.352
